{"data": "Assay results collected from several papers", "note": "Each numbered part is a random draw from the data of one study; scales do not carry over between parts."}
{"data": "Set 1", "target": "Fragile X messenger ribonucleoprotein 1, C-terminal low-complexity region (Fmr1, Mus musculus, UniProt P35922)", "technique": "RNA Bind-n-Seq", "molecule type": "RNA", "sample": "in vitro", "concentration": "200 nM", "notes": "whole 134-nt RNA, ends assumed", "with": "150 mM LiCl", "reference": "input library", "direction": "higher = stronger binding", "each molecule": "7-deaza-guanosine replaces G", "constant ends, left off below": "GGGAGUUCUACAGUCCGACGAUC … UGGAAUUCUCGGGUGUCAAGG"}
{"Oligonucleotide": "UAACUUUAGAGGAGGAUCUGAUGGAUAUGGCAGUGGACGUGGAUUUGGGGAGGGCUAUAAUGGGUAUGGAGGAGGACCUGGAGGUGGCAA", "log2 enrichment": 0.674}
{"Oligonucleotide": "UGGGAGGUGGAUUUUGUUUAUUUUUUUAGCUCAUUUCCAGGGGUGGGAAUUUUUUUUUAAUAUGUGUCAUGAAUAAAGUUGUUUAUGAAA", "log2 enrichment": -0.271}
{"Oligonucleotide": "UCAAGUCCUGUGCUACACAUCGUAUGUACCGAAUCGGAAAAAAAGGUUUGGAGGAAAGUAUUAUGUUACGCCGUUCGGAUCUGCACUUCC", "log2 enrichment": -1.36}
{"Oligonucleotide": "UGCCUCCCUGCUGCAGAAAUACACCGACAACAGCGAGAAGCCAUCCGGGAAGAGACUGUGCAAAACCAAACACUUGAUCCCUCAGGAGUC", "log2 enrichment": -0.881}
{"Oligonucleotide": "CAAGUCCUGUGCUACACAUCGUAUGUACCGAAUCGGAAAGGGAAAGGGGAAAGGGGAAAGUAUUAUGUUACGCCGUUCGGAUCUGCACUU", "log2 enrichment": -0.327}
{"Oligonucleotide": "AGUCCUGUGCUACACAUCGUAUGUACCGAAUCGGGGUUUUGGUUUUGGGGUUUUGGGGAAAGUAUUAUGUUACGCCGUUCGGAUCUGCAC", "log2 enrichment": -0.63}
{"Oligonucleotide": "AGUCCUGUGCUACACAUCGUAUGUACCGAAUCGGAAAAAGGUUUUUGGAAAAAAAGGAAAGUAUUAUGUUACGCCGUUCGGAUCUGCACU", "log2 enrichment": -2.47}
{"Oligonucleotide": "UUUAAUGUCUGCGGCACAAUGCCUGUCUGUGGGACCAUCCUGGGAAAACCUGCUUCUGGCUGUGAGGCAGAAACCCAAACUGAAGAGCUC", "log2 enrichment": 0.684}
{"Oligonucleotide": "AAGUCCUGUGCUACACAUCGUAUGUACCGAAUCGGGGUGGGGUUUUUGGGGAGGGGAAAGUAUUAUGUUACGCCGUUCGGAUCUGCACUU", "log2 enrichment": -0.109}
{"Oligonucleotide": "CAAGUCCUGUGCUACACAUCGUAUGUACCGAAUCGGGGAAAGGGGAAAGGAAAGGAAAGUAUUAUGUUACGCCGUUCGGAUCUGCACUUC", "log2 enrichment": -0.184}
{"Oligonucleotide": "UUCAACAACUAGUACUGCUUCAAAUUAUCCAGAUGUGUUAACAAGGCCUUCUCUUCAUCGGAGCCAUCUGAAUUUUUCCAUGUUGGAAUC", "log2 enrichment": 1.09}
{"data": "Set 2", "target": "Centromere-binding protein 1, full length, His-tagged (CBF1, Saccharomyces cerevisiae, UniProt P17106, residues 1-351)", "technique": "competition protein-binding microarray", "molecule type": "double-stranded DNA, one strand shown", "sample": "in vitro", "concentration": "2 µM", "notes": "whole 60-bp probe, lowest competitor level", "with": "Pho4 competitor, 0.05 µM", "direction": "higher = stronger binding", "constant ends, left off below": "… GTCTTGATTCGCTTGACGCTGCTG", "UniProt P17106, sequence (whole entry, looked up)": "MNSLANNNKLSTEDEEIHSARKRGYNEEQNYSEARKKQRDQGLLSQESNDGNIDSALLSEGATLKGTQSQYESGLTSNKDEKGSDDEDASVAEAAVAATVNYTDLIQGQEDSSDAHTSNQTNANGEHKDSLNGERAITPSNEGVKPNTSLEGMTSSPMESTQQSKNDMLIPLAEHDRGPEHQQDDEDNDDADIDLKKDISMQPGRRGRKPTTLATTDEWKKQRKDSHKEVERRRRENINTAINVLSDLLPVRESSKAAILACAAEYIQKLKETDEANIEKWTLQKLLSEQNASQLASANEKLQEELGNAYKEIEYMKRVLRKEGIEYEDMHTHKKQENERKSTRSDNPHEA"}
{"Oligonucleotide": "TTCTTTTCCCTTTAACATGTGGAGCATAGCAGGCTC", "fluorescence intensity": "89.5 a.u."}
{"Oligonucleotide": "CTTCTGTAAATTTGTCACAATACTTGACGCGCCCCG", "fluorescence intensity": "108 a.u."}
{"Oligonucleotide": "ATCACTACCAAGAATAACGTGACGGTGCATAGGAGC", "fluorescence intensity": "480 a.u."}
{"Oligonucleotide": "GGGACTAGGGGATTGCATGTGCGGGGCAGGGGCACT", "fluorescence intensity": "138 a.u."}
{"Oligonucleotide": "AATTTTTACGCTCCACACGTCATCGACATCTAAATA", "fluorescence intensity": "96.2 a.u."}
{"Oligonucleotide": "TTTCTGAAAAAAATGCGCGTGAAAAGGAATCATTTG", "fluorescence intensity": "111 a.u."}
{"Oligonucleotide": "GAATGTATGGATCGTCAGGTGGGCATTTGTTAACTT", "fluorescence intensity": "169 a.u."}
{"Oligonucleotide": "GCAGAGGAGATCAGTCTCGTGAAGTGGATGGTTTCC", "fluorescence intensity": "105 a.u."}
{"Oligonucleotide": "TGCGCAACAACTTTTCACGTGGTATTATGTCTAGAA", "fluorescence intensity": "1260 a.u."}
{"Oligonucleotide": "TCTTAATTAAAGTTTCACGGGCAATTCTAACCTTTT", "fluorescence intensity": "82.7 a.u."}
{"Oligonucleotide": "TTAACCCACAAACGTCAGGTGTACAATCGCAAATCC", "fluorescence intensity": "221 a.u."}
{"Oligonucleotide": "CCCCATCGGACTCGGCACGATACTGGCGTTGAACGC", "fluorescence intensity": "83.3 a.u."}
{"data": "Set 3", "target": "Transcriptional repressor CTCF (CTCF, Homo sapiens, UniProt P49711, residues 1-727, full length assumed)", "technique": "protein-binding microarray", "molecule type": "double-stranded DNA, one strand shown", "sample": "in vitro", "concentration": "not given", "notes": "k-mer, scored over probes, only values ≥0.25", "direction": "higher = stronger binding", "UniProt P49711, sequence (whole entry, looked up)": "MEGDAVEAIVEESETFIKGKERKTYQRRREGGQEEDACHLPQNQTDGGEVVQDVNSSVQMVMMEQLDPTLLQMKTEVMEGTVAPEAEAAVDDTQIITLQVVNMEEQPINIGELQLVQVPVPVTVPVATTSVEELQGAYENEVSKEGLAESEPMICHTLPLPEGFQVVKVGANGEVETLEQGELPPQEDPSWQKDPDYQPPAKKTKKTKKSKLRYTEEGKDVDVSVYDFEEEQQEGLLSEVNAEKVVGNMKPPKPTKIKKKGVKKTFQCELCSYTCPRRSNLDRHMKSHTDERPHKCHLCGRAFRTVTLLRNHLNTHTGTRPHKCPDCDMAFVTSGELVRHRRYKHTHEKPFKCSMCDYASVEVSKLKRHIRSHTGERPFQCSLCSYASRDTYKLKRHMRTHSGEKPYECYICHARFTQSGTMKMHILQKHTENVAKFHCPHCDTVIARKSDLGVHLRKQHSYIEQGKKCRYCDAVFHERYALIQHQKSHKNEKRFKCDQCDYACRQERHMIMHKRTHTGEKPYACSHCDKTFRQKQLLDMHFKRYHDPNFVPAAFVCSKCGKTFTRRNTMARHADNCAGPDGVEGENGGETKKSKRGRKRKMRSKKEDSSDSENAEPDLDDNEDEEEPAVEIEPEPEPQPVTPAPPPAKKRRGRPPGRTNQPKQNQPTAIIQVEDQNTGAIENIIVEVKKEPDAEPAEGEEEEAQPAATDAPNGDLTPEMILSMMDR"}
{"Oligonucleotide": "AAATGTAT", "E-score": 0.321}
{"Oligonucleotide": "ATAACTTC", "E-score": 0.292}
{"Oligonucleotide": "AATTGCAT", "E-score": 0.28}
{"Oligonucleotide": "TATGTTGA", "E-score": 0.305}
{"Oligonucleotide": "CATTACAC", "E-score": 0.263}
{"Oligonucleotide": "TAATGTGA", "E-score": 0.296}
{"Oligonucleotide": "ATTAAATA", "E-score": 0.338}
{"data": "Mixed results"}
{"Substance": "PhoQ, residues 284 288 289 292 302 303 TYGVAM", "target": "PhoP, residues 12 14 15 18 19 VQALL (Escherichia coli, UniProt P23836)", "assay": "Sort-seq, measured: YFP reporter", "system": "E. coli", "conditions": "PhoQ-PhoP variant library, with: 10 µM Mg2+", "scale": "reference: high Mg2+ state, higher = stronger signaling", "measurement": "fold induction", "value": 7.89}
{"note": "Some of these lines once more (set 3):"}
{"Oligonucleotide": "TATGTTGA", "E-score": 0.305}
{"Oligonucleotide": "AAATGTAT", "E-score": 0.321}
{"Oligonucleotide": "ATAACTTC", "E-score": 0.292}
{"Oligonucleotide": "TAATGTGA", "E-score": 0.296}
